# Results from different studies.
# ± marks the error that the study gave.
# BCHE: Cholinesterase (BCHE, Homo sapiens, UniProt P06276)
# Sequence of UniProt P06276 (whole entry, looked up): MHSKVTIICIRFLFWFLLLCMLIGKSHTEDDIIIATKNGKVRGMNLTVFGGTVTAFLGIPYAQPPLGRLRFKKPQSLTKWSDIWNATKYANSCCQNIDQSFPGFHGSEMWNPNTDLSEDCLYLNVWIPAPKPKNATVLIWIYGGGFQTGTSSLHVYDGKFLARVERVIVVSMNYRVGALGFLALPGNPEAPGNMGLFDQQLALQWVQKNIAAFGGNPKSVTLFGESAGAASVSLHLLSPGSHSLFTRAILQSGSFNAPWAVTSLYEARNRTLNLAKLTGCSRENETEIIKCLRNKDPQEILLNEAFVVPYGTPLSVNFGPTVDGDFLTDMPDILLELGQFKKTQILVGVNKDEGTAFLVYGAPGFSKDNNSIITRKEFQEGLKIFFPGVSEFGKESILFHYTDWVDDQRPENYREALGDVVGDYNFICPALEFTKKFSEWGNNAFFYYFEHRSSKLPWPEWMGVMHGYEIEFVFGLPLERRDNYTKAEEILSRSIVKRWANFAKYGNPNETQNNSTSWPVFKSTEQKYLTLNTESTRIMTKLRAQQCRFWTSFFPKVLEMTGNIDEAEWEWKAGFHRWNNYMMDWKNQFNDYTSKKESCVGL
# Sequence of UniProt P15823 (whole entry, looked up): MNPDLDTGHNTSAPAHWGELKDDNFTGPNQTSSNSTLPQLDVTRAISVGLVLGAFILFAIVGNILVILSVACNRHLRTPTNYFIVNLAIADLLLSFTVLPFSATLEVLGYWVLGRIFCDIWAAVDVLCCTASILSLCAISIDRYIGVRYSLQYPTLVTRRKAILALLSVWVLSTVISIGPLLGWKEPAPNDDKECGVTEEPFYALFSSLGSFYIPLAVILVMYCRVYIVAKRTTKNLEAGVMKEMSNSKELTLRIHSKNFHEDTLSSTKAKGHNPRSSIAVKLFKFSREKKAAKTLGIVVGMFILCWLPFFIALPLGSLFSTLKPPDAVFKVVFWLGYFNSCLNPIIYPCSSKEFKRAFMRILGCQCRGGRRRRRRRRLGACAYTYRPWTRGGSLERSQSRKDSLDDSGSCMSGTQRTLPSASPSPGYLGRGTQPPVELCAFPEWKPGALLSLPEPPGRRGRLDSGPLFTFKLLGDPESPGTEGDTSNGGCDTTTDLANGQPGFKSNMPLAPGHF
# Sequence of UniProt P14416 (whole entry, looked up): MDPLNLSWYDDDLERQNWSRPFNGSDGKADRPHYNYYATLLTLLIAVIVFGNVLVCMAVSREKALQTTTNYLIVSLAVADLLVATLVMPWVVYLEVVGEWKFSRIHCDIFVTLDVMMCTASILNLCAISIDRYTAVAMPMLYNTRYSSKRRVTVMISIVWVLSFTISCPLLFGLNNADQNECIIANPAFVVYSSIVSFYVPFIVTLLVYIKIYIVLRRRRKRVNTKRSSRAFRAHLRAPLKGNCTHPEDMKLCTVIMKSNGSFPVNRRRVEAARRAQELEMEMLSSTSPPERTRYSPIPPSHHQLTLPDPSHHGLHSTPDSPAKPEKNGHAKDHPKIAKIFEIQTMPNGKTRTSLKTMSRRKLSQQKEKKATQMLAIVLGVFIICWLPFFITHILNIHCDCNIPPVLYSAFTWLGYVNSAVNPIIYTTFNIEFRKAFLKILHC
# Sequence of UniProt Q9Y2H1 (whole entry, looked up): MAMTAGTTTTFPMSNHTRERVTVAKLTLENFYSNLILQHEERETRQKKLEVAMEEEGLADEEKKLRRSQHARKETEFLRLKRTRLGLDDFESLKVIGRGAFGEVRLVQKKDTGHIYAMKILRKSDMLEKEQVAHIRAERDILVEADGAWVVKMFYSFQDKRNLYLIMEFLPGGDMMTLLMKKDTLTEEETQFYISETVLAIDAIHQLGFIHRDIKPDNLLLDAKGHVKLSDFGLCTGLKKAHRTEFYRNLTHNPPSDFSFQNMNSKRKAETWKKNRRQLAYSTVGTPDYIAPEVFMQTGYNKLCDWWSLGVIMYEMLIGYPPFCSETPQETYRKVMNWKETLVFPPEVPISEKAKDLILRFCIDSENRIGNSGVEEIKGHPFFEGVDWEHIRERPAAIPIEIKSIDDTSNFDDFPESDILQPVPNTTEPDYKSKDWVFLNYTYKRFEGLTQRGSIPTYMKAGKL
# Sequence of UniProt Q96P66 (whole entry, looked up): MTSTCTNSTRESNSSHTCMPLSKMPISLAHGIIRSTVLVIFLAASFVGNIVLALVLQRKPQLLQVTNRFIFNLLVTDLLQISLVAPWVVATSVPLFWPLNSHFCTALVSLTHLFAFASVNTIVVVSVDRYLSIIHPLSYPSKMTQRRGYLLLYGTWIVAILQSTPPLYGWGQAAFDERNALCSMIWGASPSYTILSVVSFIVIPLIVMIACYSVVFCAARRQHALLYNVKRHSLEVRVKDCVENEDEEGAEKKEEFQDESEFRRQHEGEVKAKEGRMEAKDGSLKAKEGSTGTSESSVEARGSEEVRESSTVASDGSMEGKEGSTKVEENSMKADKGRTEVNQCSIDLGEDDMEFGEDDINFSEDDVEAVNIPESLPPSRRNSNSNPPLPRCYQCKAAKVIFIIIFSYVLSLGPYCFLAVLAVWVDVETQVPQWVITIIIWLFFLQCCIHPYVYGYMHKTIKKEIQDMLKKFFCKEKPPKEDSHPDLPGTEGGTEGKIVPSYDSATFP
# Sequence of UniProt Q12884 (whole entry, looked up): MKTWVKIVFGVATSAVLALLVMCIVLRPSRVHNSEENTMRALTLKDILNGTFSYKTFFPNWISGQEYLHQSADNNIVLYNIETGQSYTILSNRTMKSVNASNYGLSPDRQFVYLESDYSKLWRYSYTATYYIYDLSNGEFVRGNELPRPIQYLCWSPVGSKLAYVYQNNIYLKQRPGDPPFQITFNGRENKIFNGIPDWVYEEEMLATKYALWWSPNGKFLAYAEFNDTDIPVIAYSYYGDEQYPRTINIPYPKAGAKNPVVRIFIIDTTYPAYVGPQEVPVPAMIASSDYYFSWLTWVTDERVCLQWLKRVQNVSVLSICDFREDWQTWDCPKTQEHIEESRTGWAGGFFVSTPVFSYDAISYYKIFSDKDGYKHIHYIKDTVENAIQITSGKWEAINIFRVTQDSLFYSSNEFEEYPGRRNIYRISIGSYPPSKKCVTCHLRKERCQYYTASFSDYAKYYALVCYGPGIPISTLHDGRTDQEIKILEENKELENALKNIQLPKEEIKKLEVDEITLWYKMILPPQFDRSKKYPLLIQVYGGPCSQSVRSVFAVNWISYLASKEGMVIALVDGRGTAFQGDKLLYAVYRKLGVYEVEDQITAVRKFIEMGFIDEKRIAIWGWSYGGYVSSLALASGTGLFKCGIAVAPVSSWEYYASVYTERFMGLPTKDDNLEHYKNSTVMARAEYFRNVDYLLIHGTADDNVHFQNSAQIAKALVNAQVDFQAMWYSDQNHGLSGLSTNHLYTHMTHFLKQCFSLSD
SMILES,target or system,assay,test system,setting,how to read,measurement,result
Oc1ccc2c3c1O[C@H]1[C@@H](O)CC[C@@]4(O)[C@@H](C2)N(CC2CCC2)CC[C@]314,"GPR101 (Homo sapiens, UniProt Q96P66)","β-arrestin recruitment, TANGO luminescence",,concentration not given,reference: basal luminescence,log2 fold change,0.083
Cc1c(NC(=O)c2cc3c(s2)CCCC3)cccc1-c1cn(C)c(=O)c(Nc2ccc(C3C(=O)N(C)CCN3C)cc2)n1 (racemic),BCHE,,,"concentration not given, Triton",,efficacy,-59.4 ± 4.22%
O=C(c1ccc(Cl)cc1)N1CCN2C(=O)N(OC(=O)N3CCOc4ccccc43)C(=O)C2C1 (stereo not shown),"Prolyl endopeptidase FAP (FAP, Homo sapiens, UniProt Q12884)",MS-based ABPP,SW-620 conditioned medium,"10 µM, 1 h, 37 °C","reference: compound over DMSO, lower = more inhibition",median protein ratio,0.96
COc1ccc(N2C(=O)N(c3c(C)cccc3Cl)Cc3cnc(Nc4ccc(C5CCN(C)CC5)cc4OC)nc32)nc1,"Serine/threonine-protein kinase 38-like (STK38L, Homo sapiens, UniProt Q9Y2H1)","kinase activity, inhibitor",,"0.5 µM, NDR2",,inhibition,7.47%
O=C(Nc1cccnn1)N1CCC(=Cc2cccc(Oc3ccc(C(F)(F)F)cn3)c2)CC1,"glycine transporter, rat",binding,,"10 µM, with: [3H]glycine",,inhibition,30%
CC[C@H]1CN2CC[C@H]1C[C@H]2[C@H](O)c1ccnc2ccc(OC)cc12,BCHE,"inhibitor, fluorescence",,,,efficacy,-94.8 ± 10.8%
Nc1nc(N)c2nc(-c3ccccc3)c(N)nc2n1,Plasmodium falciparum,,W2,,,IC50,12.6 µM
CNC1(c2ccccc2Cl)CCCCC1=O (racemic),"D(2) dopamine receptor (DRD2, Homo sapiens, UniProt P14416)","radioligand binding, antagonist, radioligand displacement",,"30 µM, long isoform",,inhibition,1%
CN(C(=O)n1cnc(-c2ccc[n+]([O-])c2)c1)C1CCCCC1,"Alpha-1B adrenergic receptor (Adra1b, Rattus norvegicus, UniProt P15823)",radioligand binding,,"50 µM, with: [3H]prazosin",,inhibition,6%
C=CCc1ccccc1OCC(O)CNC(C)C (stereo not shown),Plasmodium falciparum,,D10,,,IC50,10 µM
C[C@H]1CN(c2n[nH]c3nc(N[C@H]4CC[C@H](NS(=O)(=O)CCC(F)(F)F)CC4)ncc23)CCO1,"Putative ribosomal protein uL10-like (RPLP0P6, Homo sapiens, UniProt Q8NHW5)","competitor, Kinobeads competition, refers to: RPLP0-like",human cell extract,0.16 µM,reference: vehicle,relative abundance,1.05
Cc1cccc(S(=O)(=O)N2CCC[C@@H]2CCN2CCC(C)CC2)c1.Cl,BCHE,,,"concentration not given, Triton",,efficacy,-81.1 ± 6.25%
O=C(Nc1cnccc1Cl)N1CCN(Cc2ccc3c(c2)OC(F)(F)O3)CC1,"Abhydrolase domain-containing protein 11 (Rattus norvegicus, UniProt D3ZXK4)","probe labelling, inhibitor, competitive ABPP with azido-FP probe, refers to: Abhd11",rat brain soluble fraction,10 µM,,inhibition,2.2%

# Repeated from above:
SMILES,target or system,assay,test system,setting,how to read,measurement,result
Cc1c(NC(=O)c2cc3c(s2)CCCC3)cccc1-c1cn(C)c(=O)c(Nc2ccc(C3C(=O)N(C)CCN3C)cc2)n1 (racemic),BCHE,,,"concentration not given, Triton",,efficacy,-59.4 ± 4.22%
